Results of several laboratories.
Each numbered part is a random draw from the data of one study; scales do not carry over between parts.

Set 1
Target: RING finger protein unkempt homolog, zinc fingers 1-6, SBP tag (UNK, Homo sapiens, UniProt Q9C0B0, residues 30-357)
Sequence of UniProt Q9C0B0 (30-357, looked up): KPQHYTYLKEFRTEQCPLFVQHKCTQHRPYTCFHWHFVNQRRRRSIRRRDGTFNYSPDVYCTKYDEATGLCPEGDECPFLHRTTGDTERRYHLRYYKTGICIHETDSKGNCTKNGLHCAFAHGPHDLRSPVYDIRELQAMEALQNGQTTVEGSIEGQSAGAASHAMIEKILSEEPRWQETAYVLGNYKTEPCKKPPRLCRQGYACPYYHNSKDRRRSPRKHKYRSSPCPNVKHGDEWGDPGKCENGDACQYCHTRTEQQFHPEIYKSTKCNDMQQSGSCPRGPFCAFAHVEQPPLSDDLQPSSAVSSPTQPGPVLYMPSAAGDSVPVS
Method: RNA Bind-n-Seq
Form: RNA
Matrix: in vitro
Tested at: 100 nM
Setting: RNA with constant flanks, vertebrate orthologous sites, ends assumed
Relative to: input RNA pool
Reading: higher = stronger binding
`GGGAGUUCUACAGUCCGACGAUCGAGCUAAAGAAGUUAGCAUCUUUAUUUUUGUAUCAAAGAUAAAGGUUAUUUUGAAAUUAUUAGGAUUUUUACACAACGCUGAAGUCUGUUGCUUUUGUAAACAAAUUGUUUGAUCUUAGGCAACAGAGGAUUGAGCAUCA` gave a bound/input enrichment of 1.52 ratio.
For `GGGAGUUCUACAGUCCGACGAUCCAUGUCCUUAUUACUGUGAUAUUAAAACAGACACAGUACUCAUUUCCCCCCCAGUGAUUUUUGUAAUUGCCUAGGAAGAUCUUUCUCUUACCUGUUAUUUAUCAAUUUUUCCCAGUAUUUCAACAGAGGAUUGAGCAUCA`, the bound/input enrichment was 1.05 ratio.
For `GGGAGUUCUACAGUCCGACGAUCUCCUGAACGUCUAGCUUUCACAUGAUGGCUGUUCUAGAUACUGGUUUUUCUUUUGAAAACUCCUCCGGUUCCCAUCUUCUCCUUCCUGGUUCCUAAGGUUUGACUCAUGGAUUUUACUCGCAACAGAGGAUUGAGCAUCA`, the bound/input enrichment was 0.645 ratio.
`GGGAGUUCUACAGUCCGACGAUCACACUUAUAUUGUGGCAUAUAGUCAACAUGGAAGUAGACCAGCUCUGCUGAUUUGAAAUUUAGAUUUUUUAAUUAUGUACUGGGGACAGGUUUUUGUCGCUUUACAUUGCUUCCUAGUUUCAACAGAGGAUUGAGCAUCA` gave a bound/input enrichment of 3.14 ratio.
For `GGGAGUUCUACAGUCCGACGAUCUACCCUCCCAGGACCCAGUGGUGCGGCCUGGGCCCACUGGCCACAUCAGCCAGGCCGUUUCAGCCUUUUUUUUUCUUUUUUUUUUUUUUUUAACAGUGCCCUUAUUAUUAUCCUAUACAUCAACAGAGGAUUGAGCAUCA`, the bound/input enrichment was 1.68 ratio.
For `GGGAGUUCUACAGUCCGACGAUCAAUUCAUCUCUCACUUACCUGAAACUGCUAUGAGGGUUUGAAACUUUGGUUAGUUUCGUGUAGAACUACACUGGCAGGUGCUCAAAUACCGUCAUAGCGAGACGAAAUACCAUCACGGUGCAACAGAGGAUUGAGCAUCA`, the bound/input enrichment was 0.348 ratio.
With `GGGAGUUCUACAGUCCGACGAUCGAACUAAAGGAGUUAGCAUCUUUAUUUUUGUAUCAAAGAUGAAGAUUAUUUUGAAAUUAUUAAGAUUUUUACACAACUCUGAAGUCUGUUGCUUUUGUAAACAAGUUGUUUAAUCUUAGGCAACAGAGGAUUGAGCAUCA` the bound/input enrichment was 0.498 ratio.
`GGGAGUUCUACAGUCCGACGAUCUAUUCAUUUGAUUAAAAUUAUUUAGAUAAGGAACUAUUACUGUUUAUCUUUGCUUUCAGACAACUUAUCCUAUUUUUUAUCCAUUUUGCAAAAUAGCACUUGUGUGUGGUUUCUUAACACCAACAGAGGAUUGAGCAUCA` has a bound/input enrichment of 0.744 ratio.
For `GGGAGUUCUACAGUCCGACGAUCAUAUUUGCUCAAUUGAAUUAUUUAGAUAAAAGAAAUUUAUUGUUUAUGUUUUCUUUCAAGCAGUCUAUCCUAUAUUUAUCCAUUUGCAAAUGCCAGUUUUGUGUGGAUUCUUAGCAUAUCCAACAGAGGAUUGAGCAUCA`, the bound/input enrichment was 0.754 ratio.
For `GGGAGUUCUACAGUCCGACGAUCAGUAGUUUUAAGCUUGUUUGCACAGUUCUUUUUUUCCAUUGGAAAUGGAAUUCAUUGCCUUAGGUCUUUUUAAAUACUGUAUUAUCGUUGGGGCUGGCUCUAUGCUUGAAAACCAGUUUACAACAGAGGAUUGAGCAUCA`, the bound/input enrichment was 1.38 ratio.
The bound/input enrichment of `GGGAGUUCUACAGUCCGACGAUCGGUUAAUGUGUUAUUUAUUGAAUAUUGUUUGUGCUAAGCAUUGUGUUAGAUUUAAAAAAUUAGUGGAUUGACUCCACUUUGUUGUGUUGUUUUCAUUGUUGAAAAUAAAUAUAACUUUGUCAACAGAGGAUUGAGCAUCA` is reported as 1.03 ratio.

Set 2
Target: TAR DNA-binding protein 43, full length, His tag (TARDBP, Homo sapiens, UniProt Q13148, residues 1-414)
Method: RNA Bind-n-Seq
Form: RNA
Matrix: in vitro
Tested at: 20 nM
Setting: 6-mer, flanks averaged, single round
Added: 150 mM LiCl
Relative to: input library
Reading: higher = stronger binding
`UCUCAC`: “6-mer enrichment (R)” 0.83.
Under “6-mer enrichment (R)”, `UGCUCU` is recorded as 0.906.
`AUUCUC`: “6-mer enrichment (R)” 0.869.
For `AACACC`, “6-mer enrichment (R)” read 0.886.
`UCCUUG` — result for “6-mer enrichment (R)”: 1.08.
`CUACCU`: “6-mer enrichment (R)” 0.886.
Under “6-mer enrichment (R)”, `UCCAUA` is recorded as 0.879.
`CCGAAA` — result for “6-mer enrichment (R)”: 0.803.
For `UCUUUG`, “6-mer enrichment (R)” read 1.03.
`UACUAC`: “6-mer enrichment (R)” 0.843.
Under “6-mer enrichment (R)”, `UGUCAU` is recorded as 0.955.
`CACUGA`: “6-mer enrichment (R)” 0.83.
`UUCCAC`: “6-mer enrichment (R)” 0.904.
`GCACAG`: “6-mer enrichment (R)” 0.915.
Under “6-mer enrichment (R)”, `CGACGC` is recorded as 0.826.
Under “6-mer enrichment (R)”, `CGUCCC` is recorded as 1.01.
`AUGUCC`: “6-mer enrichment (R)” 0.939.
`CGACCG`: “6-mer enrichment (R)” 0.815.
`CGACAC`: “6-mer enrichment (R)” 0.887.
`UCGCUA`: “6-mer enrichment (R)” 0.853.
For `ACCAUA`, “6-mer enrichment (R)” read 0.871.
Under “6-mer enrichment (R)”, `CGCUGU` is recorded as 0.962.
Under “6-mer enrichment (R)”, `UCUUAG` is recorded as 0.881.
`CCAACU`: “6-mer enrichment (R)” 0.862.
For `UUCAUU`, “6-mer enrichment (R)” read 1.

Set 3
Target: Histone acetyltransferase KAT6A, both winged helices, GST fusion (KAT6A, Homo sapiens, UniProt Q92794, residues 1-181)
Method: protein binding microarray
Form: double-stranded DNA, one strand shown
Matrix: in vitro
Tested at: not given
Setting: 8-mer, flanks averaged, mean of 2 arrays, mostly near background
Relative to: not given
Reading: higher = stronger binding
Construct (chain): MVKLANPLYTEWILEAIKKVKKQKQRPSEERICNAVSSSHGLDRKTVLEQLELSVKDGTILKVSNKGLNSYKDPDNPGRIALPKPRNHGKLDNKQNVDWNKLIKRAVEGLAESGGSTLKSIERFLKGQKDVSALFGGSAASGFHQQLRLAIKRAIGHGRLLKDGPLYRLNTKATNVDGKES
`CGACCGAA` has an E-score of -0.00491.
For `GACGTACA`, the E-score was -0.047.
`CTCAAATA` gave an E-score of 0.0365.
For `AAAAGAGC`, the E-score was -0.0428.
`GTAAGCAA` gave an E-score of -0.165.
The E-score of `AAGCAGAT` is reported as -0.216.
`CATTTTAG` gave an E-score of 0.118.
With `CTGGCGGA` the E-score was -0.0129.
With `CTTACGGA` the E-score was 0.0911.
With `GAGGCTCC` the E-score was -0.0379.
With `CACCCGTG` the E-score was 0.156.
With `AGATCAGA` the E-score was -0.0391.
`TCTTGCAA` gave an E-score of 0.0518.
`ACAATCTA` gave an E-score of -0.0671.
`AGAAAGAA` has an E-score of -0.0969.
For `GCCAAGTA`, the E-score was -0.251.
`CTAATCGC` has an E-score of 0.126.
The E-score of `GAGTCAGC` is reported as -0.00664.

Set 4
Target: RNA binding protein fox-1 homolog 2, RRM domain, GST-SBP tag (RBFOX2, Homo sapiens, UniProt O43251-10, residues 100-194)
Method: RNA Bind-n-Seq
Form: RNA
Matrix: in vitro
Tested at: 365 nM
Setting: natural RNA segment, single round, ends assumed
Relative to: no-protein control
Reading: higher = stronger binding
Construct (chain): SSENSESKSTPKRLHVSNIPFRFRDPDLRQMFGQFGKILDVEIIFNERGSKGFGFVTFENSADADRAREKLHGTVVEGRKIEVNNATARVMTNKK
`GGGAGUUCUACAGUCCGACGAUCGUAUUUAGAAAAGUCUUAAGUAUUGUGCUUUGUAAAGAAGAUGAUUAAAAUGAAAUUUUGUGAGAAUGUUUUGUUCAAAGUUGUCAUGGUCCAAGAGGAAUGAUUUUUUUUGGAAUUCUCGGGUGCCAA`: “RBNS enrichment (R)” 1.71.
`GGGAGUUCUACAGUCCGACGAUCUCAAAGUGUUUGUGUCCCUUGCCAGCCUCCCUGGGGUCUGGGGACCUGCAGCAGCAUGUCUGGCAAACUGAGUCGCCCUCCUGCCUCCAGCUCUCUGUUGAGCAGAGGGAUGGAAUUCUCGGGUGCCAA` — result for “RBNS enrichment (R)”: 3.07.
Under “RBNS enrichment (R)”, `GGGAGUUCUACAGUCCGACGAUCCAUGUAAACACAGUACCUCAGUUUUCUGUCCACAGCUGCAGUCGCUCUGUCCCUCGUGCUUCACUGUGGGCAGCCAGGGACAAGCUUCUGAAAGCAGUGUGAUACCCAAGUGGAAUUCUCGGGUGCCAA` is recorded as 0.32.
`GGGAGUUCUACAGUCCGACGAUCAGUAUCACCAGGCACUAUAUUUCAUCUUUGAGGCUUUUGUUAUACCAAGGAAUACUAUAUAAAGUAAUGAGACUGGUUUAAAGUAACAUGCCAGAACUUACGCAUCCAAUUGGAAUUCUCGGGUGCCAA` — result for “RBNS enrichment (R)”: 0.767.
Under “RBNS enrichment (R)”, `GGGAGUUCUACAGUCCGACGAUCUGUGAGGAGCUGCUGGCUUGCAGUGCGCGUGCACGUGGAGAGCUGGUGCCCGGAGAUUGGACGGCCUGAUGCUCCCUCCCCUGCCCUGGUCCAGGGAAGCUGGCCGAGGGUGGAAUUCUCGGGUGCCAA` is recorded as 0.365.
`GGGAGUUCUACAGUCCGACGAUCUUAGAACUACAUUCUUUACCCCUUGUUUUAAUUUGAACCCCACCAUAUGGAUUUUUUUCCUUAAGAAAAUCUCCUUUUAGGAGAUCAUGGUGUCACAGUGUUUGGUUCUUUGGAAUUCUCGGGUGCCAA` — result for “RBNS enrichment (R)”: 0.301.
Under “RBNS enrichment (R)”, `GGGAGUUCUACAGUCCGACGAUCGAAUUAAUUGUAUUGUAAUAUUAUUUGUUGAAUGUAGUAAUUAGGUAUUUAUGAAUAUAUUGCUGUAAUUUCUGACAACAUCCAAAAAAUAAAAUCUUCCUAAAUUAUGUUGGAAUUCUCGGGUGCCAA` is recorded as 0.455.
`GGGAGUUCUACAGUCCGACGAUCAUCUUUCCUUUUUAAUGAAAACAUUAGCAUGUUAAUACCCCGUAUGAAUAAUGCCUGACAUUCAACAAUUGUGGAAAUAUGUUGGUAUGUUGCUGAACAUACAUACACCUUGGAAUUCUCGGGUGCCAA`: “RBNS enrichment (R)” 0.326.
`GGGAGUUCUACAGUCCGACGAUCUUCCCACCCAGGAAAGGAGGACCAGUCAGGAUGAGGCCCCGCCUUUUCCCCCACCCUCCCAUGAGACUGCCCUGCCCAGGUAUCCUGGGGGAAGAGGAGAUGUGAUCAGGUGGAAUUCUCGGGUGCCAA`: “RBNS enrichment (R)” 0.513.
`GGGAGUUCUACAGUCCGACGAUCUCUGCUCCUCACCUGCAGAAGCCAGUUUGUUUGGCCAUGUGACAAUUGUCCUGUGUUUUUAUAGCACCCAAAUCAUUCUAAAAUAUGAACAUCUAAAAACUUUGCUAGGAUGGAAUUCUCGGGUGCCAA`: “RBNS enrichment (R)” 0.507.
`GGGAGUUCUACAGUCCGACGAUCGAGAAGAGCUUGCACAGCCAACGAGACACAUUGCCUUCUGGAGCUGGGAGACAAAGGAGGAAUUUACUUUCUUCACCAAGUGCAAUAGAUUACUGAUGUGAUAUUCUGUUUGGAAUUCUCGGGUGCCAA` — result for “RBNS enrichment (R)”: 0.317.
`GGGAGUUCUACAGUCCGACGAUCCCCUCCAGAGCUUGAACAACAACUUUAGGAGUAAAUAAAAGCCUAAAAUAUAUUUUAACCAUCCAGAGAUGGUGUUGAAUCCUUCAACAAAUGUGUCAUUCAAAACAGUAUGGAAUUCUCGGGUGCCAA`: “RBNS enrichment (R)” 0.816.

Repeated from above (set 2):
Under “6-mer enrichment (R)”, `CGCUGU` is recorded as 0.962.
Under “6-mer enrichment (R)”, `CGUCCC` is recorded as 1.01.
`AUUCUC`: “6-mer enrichment (R)” 0.869.
`CGACCG`: “6-mer enrichment (R)” 0.815.
Under “6-mer enrichment (R)”, `CGACGC` is recorded as 0.826.
Under “6-mer enrichment (R)”, `UCUUAG` is recorded as 0.881.
`CCGAAA` — result for “6-mer enrichment (R)”: 0.803.
